Measured values pooled from the literature.
Lines come from different studies, so protocols differ. Numbers after ± are the reported error.

SMILES = COc1ccccc1Nc1ccc2c(c1)C(c1ccccc1F)=NC(C)C(=O)N2 (stereo not drawn); assay = shake flask; test system = PBS; conditions = 24 h, pH 7.4; measurement = solubility; value = 3.9 µM
SMILES = CN[C@@](C)(C[18F])C(=O)O; test system = SCID mouse SK-OV-3 xenograft, kidney; conditions = 120 min, post injection; measurement = tissue uptake; value = 2.8 ± 0.5 %ID/g
SMILES = CC(C)[C@@](O)(C(=O)OCC1=CC[N+]2([O-])CC[C@@H](O)[C@@H]12)[C@@H](C)O (stereo partly drawn); test system = human whole blood; conditions = 1000 ng/mL, 60 min, 37 °C; measurement = blood-to-plasma ratio; value = 0.689
SMILES = NC(=O)c1nc(F)c[nH]c1=O; assay = UV-Vis spectrophotometry; test system = supercritical CO2; conditions = 120 min, 328 K, 30 MPa, 850.83 kg/m^3; measurement = solubility; value = 2330 µg/mL
SMILES = COC(=O)c1ccnc(-c2cc(C(=O)OC)ccn2)c1.O.[C-]#[O+].[C-]#[O+].[C-]#[O+].[Re+]; assay = RP-HPLC C18 column, refers to: free diimine ligand; test system = MeCN:water 40:60, 0.1% TFA; conditions = isocratic elution; measurement = capacity factor; value = 2.4
SMILES = CSCC[C@@H]1NC(=O)[C@H](CC(=O)O)NC(=O)CNC(=O)[C@H](CCCNC(=N)N)NC(=O)[C@H](C)NC(=O)[C@H](CCC(=O)O)NC(=O)[C@H](CCCNC(=N)N)NC(=O)[C@@H]2CSSC[C@@H]3NC(=O)[C@H](CO)NC(=O)[C@H]([C@@H](C)O)NC(=O)[C@@H]4CCCN4C(=O)[C@H](C)NC(=O)[C@H](Cc4c[nH]c5ccccc45)NC(=O)[C@H](CC(=O)O)NC(=O)CNC(=O)[C@H](CCCNC(=N)N)NC(=O)CNC(=O)[C@H](CCC(N)=O)NC(=O)[C@@H]4CCCN4C(=O)[C@@H](NC(=O)CNC(=O)C(C)F)CSSC[C@H](NC(=O)CNC(=O)[C@H](C)NC(=O)[C@H](CC(C)C)NC(=O)[C@H](CSSC[C@@H](C(=O)NCC(N)=O)NC(=O)[C@H]([C@@H](C)O)NC(=O)[C@H](CCCNC(=N)N)NC(=O)[C@@H]4CCCN4C1=O)NC(=O)[C@H](CC(=O)O)NC(=O)[C@H](CO)NC(=O)[C@H](CC(=O)O)NC(=O)[C@H](CCC(N)=O)NC(=O)[C@H](CO)NC3=O)C(=O)N[C@@H](C(C)C)C(=O)N2 (stereo partly drawn) [fluorine-18 labelled]; test system = nude mice, U-87 MG xenograft, tumor; conditions = intravenous, 2.5 h, with: cyclo(RGDyK) 330 µg coinjected; measurement = tissue uptake; value = 0.41 ± 0.12 %ID/g
SMILES = CCCCCOc1ccc(-c2cc(-c3ccc(C(=O)N[C@H]4C[C@@H](O)[C@@H](O)NC(=O)[C@@H]5[C@@H](O)[C@@H](C)CN5C(=O)[C@H]([C@H](O)CC(N)=O)NC(=O)[C@H]([C@H](O)[C@@H](O)c5ccc(O)c(OS(=O)(=O)O)c5)NC(=O)[C@@H]5C[C@@H](O)CN5C(=O)[C@H]([C@@H](C)O)NC4=O)cc3)no2)cc1; test system = infants on ECMO, plasma; conditions = intravenous, 4 mg/kg every 24 h, 72 to 96 h; measurement = AUC; value = 117 µg·h/mL
SMILES = CNC(=O)c1ccc(-c2cnn3ccc(C(=O)N(C)c4ccc(Cl)c(C(=O)OC)c4)cc23)cc1; test system = beagle dogs, both sexes, plasma; conditions = oral, 25 mg/kg/dose, 50 mg/kg/day, day 1; measurement = Cmax; value = 29.4 ng/mL
SMILES = CS(=O)(=O)CCCn1c(Cn2c(=O)n(CC(F)(F)F)c3ccncc32)cc2cc(Cl)ccc21; test system = RSV-infected infants; conditions = concentration not given, low dose cohorts; measurement = patients with high aPTT; value = 25%
SMILES = CCCCCOc1ccc(-c2cc(-c3ccc(C(=O)N[C@H]4C[C@@H](O)[C@@H](O)NC(=O)[C@@H]5[C@@H](O)[C@@H](C)CN5C(=O)[C@H]([C@H](O)CC(N)=O)NC(=O)[C@H]([C@H](O)[C@@H](O)c5ccc(O)c(OS(=O)(=O)O)c5)NC(=O)[C@@H]5C[C@@H](O)CN5C(=O)[C@H]([C@@H](C)O)NC4=O)cc3)no2)cc1; test system = human paediatric patients 2 to 5 years, plasma; conditions = intravenous, 4.5 mg/kg once daily, day 7, geometric mean; measurement = AUC(0-tau); value = 238 µg·h/mL
SMILES = CC(=O)CO; test system = human skin ex vivo; conditions = 500 µL infinite dose, 5% m/V, propylene glycol/water vehicle; measurement = steady-state flux; value = 84.6 ± 79 µg/cm²/h
SMILES = CC[C@H](C)[C@H](NC(=O)[C@@H](N)CCCNC(=N)N)C(=O)N[C@H](C(=O)N1CCC[C@H]1C(=O)N[C@@H](C)C(N)=O)C(C)C; test system = healthy volunteers, both sexes, plasma; conditions = intravenous infusion, 2.0 mg/kg, single ascending dose; measurement = Tmax; value = 4.4 ± 0.8 min
